Measurements from different studies.
Values joined by “and” are separate records of one study, mostly repeats; a detail may differ. ± marks the error that the study gave.
P4HB a' domain: Protein disulfide-isomerase, a' domain (P4HB, Homo sapiens, UniProt P07237)
Neuronal acetylcholine receptor; alpha4/beta2: Neuronal acetylcholine receptor; alpha4/beta2 (Homo sapiens, UniProt P17787+P43681)
MAL12: Alpha-glucosidase MAL12 (MAL12, Saccharomyces cerevisiae S288c, UniProt P53341)

SMILES | target or system | test | system | conditions | scale | endpoint | result
O=C(O[C@@H]1Cc2c(O)cc(O)cc2O[C@@H]1c1cc(O)c(=O)c2c(O)c(O)cc([C@H]3Oc4cc(O)cc(O)c4C[C@H]3OC(=O)c3cc(O)c(O)c(O)c3)c2c1)c1cc(O)c(O)c(O)c1 | P4HB a' domain | di-eosin-GSSG reductase activity | isolated a' domain | 20 µM |  | inhibition | inhibited
COc1cc(Nc2ncc(F)c(Nc3ccc4c(n3)NC(=O)C(C)(C)O4)n2)cc(OC)c1OC | Cyclin-dependent kinase 18 (CDK18, Homo sapiens, UniProt Q07002) | binding, KINOMEscan |  | 10 µM, PCTK3 kinase |  | inhibition | 0%
CN1CCN(c2nc(N)c3ccccc3n2)CC1 | Neuronal acetylcholine receptor; alpha4/beta2 | radioligand binding, radioligand competition binding |  | 0.1 µM, first replicate | baseline: control specific binding | inhibition | 8.3%
COc1ccc2[nH]c3c(c2c1)CCN(C)CC3 | Neuronal acetylcholine receptor subunit alpha-7 (Chrna7, Rattus norvegicus, UniProt Q05941) | ACh-evoked current, antagonist, two-electrode voltage clamp | Xenopus laevis oocytes | 10 µM, holding potential -40 mV, together with: 100 µM acetylcholine |  | inhibition | 21.2 ± 7.3%
O=c1ccc2ccccc2o1 | Neuronal acetylcholine receptor; alpha4/beta2 | agonist radioligand binding |  | 10 µM, SafetyScreen44 |  | inhibition | -2.02%
CN(C(=O)n1cnc(-c2ccc[n+]([O-])c2)c1)C1CCCCC1 | GABAA receptor chloride channel, rat | binding |  | 10 µM, together with: [3H]TBOB |  | inhibition | 18%
CN1C(=S)N(c2ccccc2)C(=O)/C1=C1/C(=O)N(C)c2ccc(Cl)cc21 | MAL12 | enzyme activity |  | 25 µM, together with: pNPG |  | inhibition | 12.2%
CC[C@H](C)[C@H](NC(=O)[C@@H](NC(=O)[C@H](N)Cc1ccccc1)C(C)C)C(=O)N[C@@H](C)C(N)=O | Amyloid-beta precursor protein (APP, Homo sapiens, UniProt P05067) | amyloid-beta aggregation, thioflavin T fluorescence |  | 2.0 µM, 48 h, together with: 2 µM amyloid-beta |  | inhibition | 100%
N#C/C(=C\c1ccc(O)c(O)c1)C(N)=S | Coagulation factor XIII A chain (F13A1, Homo sapiens, UniProt P00488) | crosslinking activity |  | 15 µM, without DTT |  | inhibition | inhibited
COc1ccc(N2C(=O)N(c3c(C)cccc3Cl)Cc3cnc(Nc4ccc(C5CCN(C)CC5)cc4OC)nc32)nc1 | Serine/threonine-protein kinase Nek6 (NEK6, Homo sapiens, UniProt Q9HC98) | kinase activity |  | 0.5 µM |  | inhibition | 5%
CN1C(=O)/C(=N\Nc2ncc(-c3cc4ccccc4oc3=O)s2)c2cc(Cl)ccc21 | MAL12 | enzyme activity |  | 25 µM, together with: pNPG |  | inhibition | 17.1% and 17.3%
C[C@H]1CN(c2n[nH]c3nc(N[C@H]4CC[C@H](NS(=O)(=O)CCC(F)(F)F)CC4)ncc23)CCO1 | MICOS complex subunit MIC60 (Homo sapiens, UniProt Q16891) | biochemical |  |  |  | IC50 | ≥ 20 µM
O=C(Nc1cccnn1)N1CCN([C@@H]2CCOc3cc(C(F)(F)F)ccc32)CC1 | Na+/K+-ATPase | enzyme activity |  | 20 µM |  | inhibition | -1%
O=C(Nc1cccnn1)N1CCC(=Cc2cccc(Oc3ccc(C(F)(F)F)cn3)c2)CC1 | B2 bradykinin receptor (BDKRB2, Homo sapiens, UniProt P30411) | binding |  | 50 µM, together with: [3H]bradykinin |  | inhibition | 5%
CN(CCN1CCC(OC(=O)Nc2ccccc2-c2ccccc2)CC1)C(=O)c1ccc(CN2CCC(C(N)=O)CC2)cc1 | bovine peripheral I1 site | radioligand binding |  | 1 µM, together with: [3H]clonidine 15 nM |  | inhibition | 12%
C[C@@H]1N=C(c2ccccc2F)c2cc(Br)ccc2-n2cnc(C(=O)O)c21 | rat benzodiazepine site | binding | rat brain | 10 µM, together with: [3H]flunitrazepam |  | inhibition | 95.3 ± 4.8%
O=C(N/N=C/c1ccc(Cl)cc1Cl)c1cnccn1 | Gag-Pol polyprotein, integrase with LEDGF/p75 (gag-pol, Human immunodeficiency virus 1, UniProt P12497) | LEDGF/p75-integrase interaction, AlphaScreen |  | 50 µM |  | inhibition | inactive
Cc1ncc(C)n2nc(/C=C/c3nc(N4CCCC4)cc(N4CCOCC4)n3)nc12 | thyroid hormone receptor | radioligand binding |  | 10 µM |  | inhibition | -10%

SMILES | target or system | test | system | conditions | scale | endpoint | result
CC(C)C[C@H](NC(=O)[C@H](Cc1ccccc1)NC(=O)c1cnccn1)B(O)O | Brain-specific serine protease 4 (PRSS22, Homo sapiens, UniProt Q9GZN4) | enzyme activity, inhibitor |  | 33 µM |  | inhibition | 44.4%
FC(F)(F)c1cccc(Nc2nc(NCCOc3ccccc3)nc3[nH]cnc23)c1 | Casein kinase II subunit alpha' (CSNK2A2, Homo sapiens, UniProt P19784) | Z'-LYTE or Adapta |  | 5 µM |  | inhibition | 5%
O=C1O[C@H]2[C@@H]3OC(=O)c4cc(O)c(O)c(O)c4-c4c(O)c(O)c5oc(=O)c6c(c(O)c(O)c7oc(=O)c4c5c76)-c4c(cc(O)c(O)c4O)C(=O)OC[C@H]3OC(O)[C@@H]2OC(=O)c2cc(O)c(O)c(O)c2-c2c1cc(O)c(O)c2O (mixture of isomers) | P4HB a' domain | di-eosin-GSSG reductase activity | isolated a' domain | 20 µM |  | inhibition | inhibited
CN1CCN(c2cc(-c3ccncc3)c(-c3ccc4ccccc4c3)nn2)CC1 | Histamine H1 receptor (HRH1, Homo sapiens, UniProt P35367) | antagonist, FLIPR |  | 10 µM |  | inhibition | 0.5%
COc1ccc(CCN(C)CCCC(C#N)(c2ccc(OC)c(OC)c2)C(C)C)cc1OC (centres unmarked) | Plasmodium falciparum |  | GB4 |  |  | IC50 | 5.01 µM
CCc1cc(=O)[nH]c(-n2nc(C)cc2NC(=O)c2ccc(C)c(C)c2)n1 | Vascular endothelial growth factor receptor 2 (KDR, Homo sapiens, UniProt P35968) | radiometric kinase |  | 10 µM |  | inhibition | no inhibition
Cn1cc(-c2cccc(N3CCc4c(sc5c4CC(C)(C)C5)C3=O)c2CO)cc(Nc2ccncn2)c1=O | Mitogen-activated protein kinase kinase kinase 7, with TAB1 (MAP3K7, Homo sapiens, UniProt O43318) | kinase activity, inhibitor |  | 1 µM, SelectScreen profiling |  | inhibition | 1%
Cn1cccc1-c1cccnc1 | Muscarinic acetylcholine receptor M4 (CHRM4, Homo sapiens, UniProt P08173) | binding |  | 50 µM |  | inhibition | -4.51%
CC(C)N1CCC[C@H]1CNC(=O)c1cn(C2CCCC2)c(=O)c2c1c1ccccc1n2C | NMDA receptor agonist site, rat | radioligand binding |  | 10 µM |  | inhibition | 1%
COCc1c(-c2cc3cc(C)cc(OC)c3s2)c2c(N)ncnn2c1CN1CCNC(=O)C1 | GABAA central benzodiazepine site | radioligand binding |  | 10 µM |  | inhibition | 3%
O=C(Nc1cnccc1Cl)N1CCN(Cc2ccc3c(c2)OC(F)(F)O3)CC1 | Abhydrolase domain-containing protein 11 (Rattus norvegicus, UniProt D3ZXK4) | probe labelling, inhibitor, competitive ABPP with azido-FP probe, measured: Abhd11 | rat brain membrane fraction | 10 µM |  | inhibition | 99%
O=C(c1ccc(Cl)cc1)N1CCN2C(=O)N(OC(=O)N3CCOc4ccccc43)C(=O)C2C1 (centres unmarked) | Acyl-protein thioesterase 2 (Homo sapiens, UniProt O95372) | MS-based ABPP | SW-620 conditioned medium | 10 µM, 1 h, 37 °C | baseline: compound over DMSO, lower = more inhibition | median protein ratio | 1.06
CC1=C(C)C(=O)C(CCCCC#CCCCC#CCO)=C(C)C1=O | Plasmodium falciparum |  | Dd2 |  |  | IC50 | 10 µM
C[C@H](C(=O)N[C@H]1COc2ccccc2[C@@H]1S(C)(=O)=O)c1ccc(F)cc1 | Androgen receptor (AR, Homo sapiens, UniProt P10275) | binding |  | 10 µM, Eurofins selectivity panel, together with: testosterone |  | inhibition | 7%
CCCN(CCC)CCc1c[nH]c2ccccc12 | Cholinesterase (BCHE, Homo sapiens, UniProt P06276) | inhibitor |  | with Triton |  | IC50 | 10.3 ± 5.04 µM
CCc1ccc(N2C(=O)/C(=C3/C(=O)N(C)c4ccc(Cl)cc43)NC2=S)cc1 | MAL12 | enzyme activity |  | 200 µM, together with: pNPG |  | inhibition | 61.8% and 61.9%
NNCCc1c[nH]c2ccccc12 | Cytochrome b5 type B (CYB5B, Homo sapiens, UniProt O43169) | MS-based ABPP-SILAC | HEK-293T lysate | 1 µM |  | inhibition | inhibited
